Experimental data from different studies.
Compare with care: the assays were run in different laboratories. Several values in a cell are separate wells, animals, samples, runs or records. ± gives the spread as reported.
STAT1 SH2 domain: Signal transducer and activator of transcription 1-alpha/beta, SH2 domain (STAT1, Homo sapiens, UniProt P42224)
Sequence of UniProt P42224 (whole entry, looked up): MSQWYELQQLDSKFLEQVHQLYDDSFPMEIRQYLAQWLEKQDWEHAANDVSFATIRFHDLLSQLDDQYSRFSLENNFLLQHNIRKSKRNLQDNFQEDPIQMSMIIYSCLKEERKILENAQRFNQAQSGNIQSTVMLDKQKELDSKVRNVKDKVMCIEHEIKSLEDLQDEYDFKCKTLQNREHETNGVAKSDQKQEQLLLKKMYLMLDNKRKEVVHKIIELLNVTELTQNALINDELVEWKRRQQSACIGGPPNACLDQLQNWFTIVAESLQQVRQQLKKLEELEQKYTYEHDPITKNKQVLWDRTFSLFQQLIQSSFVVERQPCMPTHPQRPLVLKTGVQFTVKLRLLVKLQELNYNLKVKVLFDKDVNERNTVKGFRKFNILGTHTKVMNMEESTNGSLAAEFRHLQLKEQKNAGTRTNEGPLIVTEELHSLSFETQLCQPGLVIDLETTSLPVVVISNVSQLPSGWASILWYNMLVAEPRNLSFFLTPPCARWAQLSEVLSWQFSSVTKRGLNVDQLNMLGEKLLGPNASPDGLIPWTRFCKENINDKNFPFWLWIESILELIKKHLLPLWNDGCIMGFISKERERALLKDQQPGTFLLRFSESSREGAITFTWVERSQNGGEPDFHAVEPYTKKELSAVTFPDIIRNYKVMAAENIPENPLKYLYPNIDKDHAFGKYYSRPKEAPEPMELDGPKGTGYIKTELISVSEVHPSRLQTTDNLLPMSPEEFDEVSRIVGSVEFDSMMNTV
RASA1 SH2 domains: Ras GTPase-activating protein 1, SH2 domains (RASA1, Homo sapiens, UniProt P20936)
Sequence of UniProt P20936 (whole entry, looked up): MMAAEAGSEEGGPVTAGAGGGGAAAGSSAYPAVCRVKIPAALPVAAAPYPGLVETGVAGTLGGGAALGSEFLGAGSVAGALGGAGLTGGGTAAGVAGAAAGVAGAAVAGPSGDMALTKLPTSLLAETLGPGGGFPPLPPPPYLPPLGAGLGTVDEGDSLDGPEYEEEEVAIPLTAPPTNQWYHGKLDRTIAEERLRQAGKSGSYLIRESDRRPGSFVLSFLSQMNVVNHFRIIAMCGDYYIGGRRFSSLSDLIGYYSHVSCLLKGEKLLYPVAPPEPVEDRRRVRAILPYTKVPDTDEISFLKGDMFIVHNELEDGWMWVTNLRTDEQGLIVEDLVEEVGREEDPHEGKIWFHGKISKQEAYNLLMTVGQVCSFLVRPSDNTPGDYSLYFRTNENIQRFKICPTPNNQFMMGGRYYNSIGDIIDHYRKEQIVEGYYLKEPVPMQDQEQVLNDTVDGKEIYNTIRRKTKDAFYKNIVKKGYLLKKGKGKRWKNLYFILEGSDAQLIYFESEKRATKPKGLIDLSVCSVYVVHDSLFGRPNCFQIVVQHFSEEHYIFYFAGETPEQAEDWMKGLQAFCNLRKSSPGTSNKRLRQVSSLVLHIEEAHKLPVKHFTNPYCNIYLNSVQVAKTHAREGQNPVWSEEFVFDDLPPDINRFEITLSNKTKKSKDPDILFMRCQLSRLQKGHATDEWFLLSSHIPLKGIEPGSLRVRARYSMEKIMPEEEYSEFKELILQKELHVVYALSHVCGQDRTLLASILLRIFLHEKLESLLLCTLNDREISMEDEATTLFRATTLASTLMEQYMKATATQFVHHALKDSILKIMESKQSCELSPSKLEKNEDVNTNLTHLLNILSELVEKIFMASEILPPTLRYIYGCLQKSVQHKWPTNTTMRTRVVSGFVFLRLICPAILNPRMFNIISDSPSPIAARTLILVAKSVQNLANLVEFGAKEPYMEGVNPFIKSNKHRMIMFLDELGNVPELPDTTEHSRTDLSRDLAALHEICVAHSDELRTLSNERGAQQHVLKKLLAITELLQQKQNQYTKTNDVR
Sequence of UniProt Q92995 (whole entry, looked up): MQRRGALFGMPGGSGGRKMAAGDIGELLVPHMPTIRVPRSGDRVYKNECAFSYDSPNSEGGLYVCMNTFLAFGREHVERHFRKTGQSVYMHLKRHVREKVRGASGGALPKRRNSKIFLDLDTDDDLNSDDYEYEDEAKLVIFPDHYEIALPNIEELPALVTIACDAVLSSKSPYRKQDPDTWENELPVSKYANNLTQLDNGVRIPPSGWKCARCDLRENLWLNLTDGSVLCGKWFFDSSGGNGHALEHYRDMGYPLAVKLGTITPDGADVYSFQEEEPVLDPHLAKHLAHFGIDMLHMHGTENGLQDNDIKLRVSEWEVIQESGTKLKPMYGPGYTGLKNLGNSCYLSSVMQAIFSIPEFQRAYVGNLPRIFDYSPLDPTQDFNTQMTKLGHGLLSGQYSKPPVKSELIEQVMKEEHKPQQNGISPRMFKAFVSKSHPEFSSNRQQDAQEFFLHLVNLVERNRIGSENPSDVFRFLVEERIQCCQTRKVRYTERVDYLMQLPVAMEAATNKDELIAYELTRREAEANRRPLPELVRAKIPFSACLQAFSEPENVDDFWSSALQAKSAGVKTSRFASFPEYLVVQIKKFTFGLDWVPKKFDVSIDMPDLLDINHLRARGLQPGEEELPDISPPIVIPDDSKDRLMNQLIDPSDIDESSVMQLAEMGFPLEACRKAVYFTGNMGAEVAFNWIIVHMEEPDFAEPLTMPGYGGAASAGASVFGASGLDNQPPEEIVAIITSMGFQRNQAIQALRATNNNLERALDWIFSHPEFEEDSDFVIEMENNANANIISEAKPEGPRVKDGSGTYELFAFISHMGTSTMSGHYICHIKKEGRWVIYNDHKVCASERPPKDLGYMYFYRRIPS
Sequence of UniProt Q9Y5T5 (whole entry, looked up): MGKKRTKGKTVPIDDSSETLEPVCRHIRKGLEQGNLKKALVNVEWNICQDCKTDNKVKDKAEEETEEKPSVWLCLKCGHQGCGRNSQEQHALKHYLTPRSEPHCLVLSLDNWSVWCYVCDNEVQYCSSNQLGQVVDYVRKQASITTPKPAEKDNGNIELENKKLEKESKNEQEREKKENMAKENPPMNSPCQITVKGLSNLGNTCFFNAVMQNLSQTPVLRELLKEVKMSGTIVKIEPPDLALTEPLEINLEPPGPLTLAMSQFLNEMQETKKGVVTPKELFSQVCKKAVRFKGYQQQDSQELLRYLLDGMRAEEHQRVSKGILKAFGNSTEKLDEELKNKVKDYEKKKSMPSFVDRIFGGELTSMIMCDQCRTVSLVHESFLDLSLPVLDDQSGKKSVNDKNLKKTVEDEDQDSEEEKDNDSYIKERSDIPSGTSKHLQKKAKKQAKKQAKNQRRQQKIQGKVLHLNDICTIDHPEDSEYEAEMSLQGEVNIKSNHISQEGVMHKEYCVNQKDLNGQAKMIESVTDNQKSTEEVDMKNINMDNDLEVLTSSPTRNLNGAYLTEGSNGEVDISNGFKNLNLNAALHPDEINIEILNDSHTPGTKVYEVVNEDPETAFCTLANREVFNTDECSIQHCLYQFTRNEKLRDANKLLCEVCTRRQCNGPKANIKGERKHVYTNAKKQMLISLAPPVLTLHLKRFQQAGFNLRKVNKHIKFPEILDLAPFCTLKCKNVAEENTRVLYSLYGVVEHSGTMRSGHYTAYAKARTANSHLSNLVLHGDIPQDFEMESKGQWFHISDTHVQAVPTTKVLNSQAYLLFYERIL
Sequence of UniProt Q07820 (whole entry, looked up): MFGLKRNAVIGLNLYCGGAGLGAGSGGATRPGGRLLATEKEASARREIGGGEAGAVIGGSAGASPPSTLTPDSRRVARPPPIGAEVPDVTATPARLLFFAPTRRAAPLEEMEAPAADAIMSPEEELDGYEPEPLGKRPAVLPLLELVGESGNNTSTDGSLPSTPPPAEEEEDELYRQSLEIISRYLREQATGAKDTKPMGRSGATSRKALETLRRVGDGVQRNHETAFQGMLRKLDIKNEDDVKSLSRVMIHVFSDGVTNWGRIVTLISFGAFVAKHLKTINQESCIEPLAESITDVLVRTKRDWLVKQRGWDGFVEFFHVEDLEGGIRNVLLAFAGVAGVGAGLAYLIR
Sequence of UniProt Q92743 (whole entry, looked up): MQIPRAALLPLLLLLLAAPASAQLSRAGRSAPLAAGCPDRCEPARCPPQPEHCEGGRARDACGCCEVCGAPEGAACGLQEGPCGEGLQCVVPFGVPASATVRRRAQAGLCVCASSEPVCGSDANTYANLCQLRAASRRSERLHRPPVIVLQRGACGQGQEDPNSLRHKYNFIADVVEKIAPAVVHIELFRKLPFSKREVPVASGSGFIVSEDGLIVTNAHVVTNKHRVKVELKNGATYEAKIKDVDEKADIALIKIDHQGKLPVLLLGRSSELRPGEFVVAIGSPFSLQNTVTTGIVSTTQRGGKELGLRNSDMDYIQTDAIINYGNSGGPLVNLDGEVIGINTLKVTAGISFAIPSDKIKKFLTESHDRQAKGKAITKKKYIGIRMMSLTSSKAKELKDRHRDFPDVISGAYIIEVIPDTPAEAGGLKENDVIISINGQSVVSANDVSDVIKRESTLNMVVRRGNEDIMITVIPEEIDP
Sequence of UniProt P11142 (whole entry, looked up): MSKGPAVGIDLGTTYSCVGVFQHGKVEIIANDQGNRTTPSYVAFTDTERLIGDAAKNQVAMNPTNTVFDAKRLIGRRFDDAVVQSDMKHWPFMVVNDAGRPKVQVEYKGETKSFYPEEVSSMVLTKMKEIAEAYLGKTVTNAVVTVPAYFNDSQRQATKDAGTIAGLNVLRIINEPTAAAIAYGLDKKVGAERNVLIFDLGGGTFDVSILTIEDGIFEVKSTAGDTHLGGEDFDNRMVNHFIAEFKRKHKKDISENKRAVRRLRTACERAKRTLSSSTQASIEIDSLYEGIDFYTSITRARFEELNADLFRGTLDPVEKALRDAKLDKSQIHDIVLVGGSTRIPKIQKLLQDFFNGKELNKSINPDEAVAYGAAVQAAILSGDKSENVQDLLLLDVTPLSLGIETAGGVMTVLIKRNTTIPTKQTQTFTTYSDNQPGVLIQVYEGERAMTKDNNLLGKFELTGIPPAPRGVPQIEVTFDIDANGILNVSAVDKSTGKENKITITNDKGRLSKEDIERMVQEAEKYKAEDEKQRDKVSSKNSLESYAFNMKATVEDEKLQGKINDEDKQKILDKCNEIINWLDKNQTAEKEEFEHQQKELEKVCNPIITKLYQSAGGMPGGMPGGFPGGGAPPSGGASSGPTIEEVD

CC[C@H](C)[C@H](NC(=O)[C@H](CC(=O)O)NC(=O)[C@H](Cc1ccccc1)NC(=O)[C@@H](NC(=O)[C@H](CC(N)=O)NC(=O)[C@@H](NC(=O)[C@H](CC(=O)O)NC(=O)c1ccc2c(c1)C(=O)OC21c2ccc(N(C)C)cc2Oc2cc(N(C)C)ccc21)C(C)C)[C@@H](C)O)C(=O)N[C@H](C(=O)N[C@H](C(=O)N[C@@H](Cc1ccc(OP(=O)(O)O)cc1)C(=O)N[C@@H](CC(C)C)C(=O)N[C@@H](CC(C)C)C(=O)N[C@@H](CCC(N)=O)C(=O)NCC(=O)N[C@@H](CCCNC(=N)N)C(=O)N[C@@H](CCCNC(=N)N)C(=O)N[C@@H](CC(C)C)C(=O)N[C@@H](CC(=O)O)C(=O)O)C(C)C)[C@@H](C)O — Kd (STAT1 SH2 domain; binding): 0.101 µM
O=C(O)CNC(=O)c1cccnc1 — Kd (Ubiquitin carboxyl-terminal hydrolase 16, ZnF-UBD domain (USP16, Homo sapiens, UniProt Q9Y5T5)): 198 µM
OC[C@H]1O[C@@H](n2cnc3cncnc32)[C@H](O)[C@@H]1O — Kd (Heat shock cognate 71 kDa protein, nucleotide-binding domain (HSPA8, Homo sapiens, UniProt P11142); binding, SPR; nucleotide-binding domain, residues 1-381): > 1000 µM
Nc1nc2c(ncn2[C@@H]2O[C@H](COP(=O)(O)OP(=O)(O)OP(=O)(O)O)[C@@H](O)[C@H]2O)c(=O)[nH]1 — Kd (GTP 3',8-cyclase (moaA, Staphylococcus aureus, UniProt P69848, R266A); binding, isothermal titration calorimetry; 25 °C, R266A mutant, anaerobic): 2.22 ± 0.67 µM
O=C(O)CCCN1CC=C(c2ccccc2)CC1 — Kd (Ubiquitin carboxyl-terminal hydrolase 13, ZnF-UBD domain (USP13, Homo sapiens, UniProt Q92995)): 594 µM
CC(C)C[C@H](NC(=O)[C@@H](NC(=O)[C@H](CO)NC(=O)[C@H](CO)NC(=O)[C@@H](NC(=O)[C@H](CC(=O)O)NC(=O)[C@H](CC(C)C)NC(=O)[C@@H]1CCCN1C(=O)[C@H](CO)NC(=O)c1ccc2c(c1)C(=O)OC21c2ccc(N(C)C)cc2Oc2cc(N(C)C)ccc21)[C@@H](C)O)C(C)C)C(=O)N[C@@H](Cc1ccc(OP(=O)(O)O)cc1)C(=O)N[C@H](C(=O)N[C@@H](C)C(=O)N[C@H](C(=O)N[C@@H](CCC(N)=O)C(=O)N1CCC[C@H]1C(=O)N[C@@H](CC(N)=O)C(=O)N[C@@H](CCC(=O)O)C(=O)N[C@@H](CC(=O)O)C(=O)O)C(C)C)[C@@H](C)O — Kd (STAT1 SH2 domain; binding): 1.88 µM
O=C1C=CC(=O)c2ccccc21 — Kd (Reaction center protein M chain, QA site (pufM, Cereibacter sphaeroides, UniProt P0C0Y9); binding): 8 µM
C/C(=N\NC(=O)c1cccc(S(=O)(=O)N2CCN(C)CC2)c1)c1cc(Cl)ccc1O — Kd (Lysine-specific histone demethylase 1A, N-terminal truncation; with CoREST (KDM1A, Homo sapiens, UniProt O60341)): ~1.3 µM and 1.3 µM
CC(C)C[C@H](NC(=O)[C@@H](N)CC(=O)O)C(=O)N[C@@H](CC(=O)O)C(=O)N[C@@H](COP(=O)(O)O)C(=O)N[C@@H](CC(=O)O)C(=O)N[C@@H](CC(=O)O)C(=O)N[C@@H](CCC(=O)O)C(=O)N[C@@H](Cc1ccc(O)cc1)C(=O)O — Kd (PIH1 domain-containing protein 1, residues 51-180 (PIH1D1, Homo sapiens, UniProt Q9NWS0, K64A); binding, ITC; 20 °C): > 112 µM
CSCC[C@H](NC(=O)CNC(=O)[C@H](Cc1ccccc1)NC(=O)[C@H](CC(=O)O)NC(=O)CNC(=O)c1ccc2c(c1)C(=O)OC21c2ccc(N(C)C)cc2Oc2cc(N(C)C)ccc21)C(=O)N[C@@H](CO)C(=O)N[C@@H](CCCNC(=N)N)C(=O)N[C@@H](CC(=O)O)C(=O)N[C@H](C(=O)N[C@@H](Cc1ccc(OP(=O)(O)O)cc1)C(=O)N[C@@H](CO)C(=O)N[C@H](C(=O)N[C@@H](CC(=O)O)C(=O)N[C@@H](Cc1ccc(O)cc1)C(=O)N[C@@H](Cc1ccc(O)cc1)C(=O)N[C@@H](CCCNC(=N)N)C(=O)N[C@H](C(=O)N[C@@H](CC(=O)O)C(=O)O)C(C)C)[C@@H](C)O)C(C)C — Kd (STAT1 SH2 domain; binding): 1.11 µM
NC(=O)N/N=C/c1ccc([N+](=O)[O-])o1 — Kd (nfsB (Escherichia coli K-12, UniProt P38489, K14R); binding; Escherichia coli): 38 ± 2 µM
CC[C@H](C)[C@H](NC(=O)[C@H](Cc1ccc(OP(=O)(O)O)cc1)NC(=O)[C@H](CCC(=O)O)NC(=O)[C@H](Cc1c[nH]cn1)NC(=O)CNC(=O)[C@H](CC(=O)O)NC(=O)[C@H](CO)NC(=O)[C@H](CO)NC(=O)[C@@H](NC(=O)[C@H](CO)NC(=O)[C@H](CCC(=O)O)NC(=O)c1ccc2c(c1)C(=O)OC21c2ccc(N(C)C)cc2Oc2cc(N(C)C)ccc21)C(C)C)C(=O)N[C@@H](Cc1ccc(O)cc1)C(=O)N[C@H](C(=O)N[C@@H](CC(=O)O)C(=O)N1CCC[C@H]1C(=O)N[C@@H](CCSC)C(=O)N[C@@H](CCC(N)=O)C(=O)N[C@@H](CC(=O)O)C(=O)O)C(C)C — Kd (RASA1 SH2 domains; binding): 1.63 µM
CC[C@H](C)[C@H](NC(=O)[C@H](CNC(=O)CCl)NC(C)=O)C(=O)N[C@@H](C)C(=O)N[C@@H](CCC(N)=O)C(=O)N[C@@H](CCC(=O)O)C(=O)N[C@@H](CC(C)C)C(=O)N[C@@H](CCCNC(=N)N)C(=O)N[C@@]1(C)CCC/C=C\CCC[C@@](C)(C(=O)N[C@@H](Cc2ccccc2)C(=O)N[C@@H](CC(N)=O)C(=O)N[C@@H](C)C(=O)N[C@@H](Cc2ccc(O)cc2)C(=O)N[C@@H](Cc2ccc(O)cc2)C(=O)N[C@@H](C)C(=O)N[C@@H](CCCNC(=N)N)C(=O)N[C@@H](CCCNC(=N)N)C(N)=O)NC(=O)[C@H](CC(=O)O)NC(=O)CNC(=O)[C@H]([C@@H](C)CC)NC1=O — Kd (MCL1 (Homo sapiens, UniProt Q07820); isothermal titration calorimetry; 25 °C, 10% DMSO): no binding
CC[C@H](C)[C@H](NC(=O)[C@H](CC(=O)O)NC(=O)[C@H](C)NC(=O)[C@H](Cc1ccc(O)cc1)NC(=O)[C@H](CCCCN)NC(=O)c1ccc2c(c1)C(=O)OC21c2ccc(N(C)C)cc2Oc2cc(N(C)C)ccc21)C(=O)N[C@@H](CCC(=O)O)C(=O)N[C@@H](CO)C(=O)N[C@@H](CO)C(=O)N[C@@H](CC(N)=O)C(=O)N[C@@H](Cc1ccc(OP(=O)(O)O)cc1)C(=O)N[C@@H](CCSC)C(=O)N[C@@H](C)C(=O)N1CCC[C@H]1C(=O)N[C@@H](Cc1ccc(O)cc1)C(=O)N[C@@H](CC(=O)O)C(=O)N[C@@H](CC(N)=O)C(=O)N[C@@H](Cc1ccc(O)cc1)C(=O)N[C@@H](CC(=O)O)C(=O)O — Kd (STAT1 SH2 domain; binding): 1.66 µM
CC[C@H](C)[C@H](NC(=O)[C@H](CCC(N)=O)NC(=O)[C@@H](NC(=O)[C@@H]1CCCN1C(=O)[C@@H](NC(=O)[C@H](CO)NC(=O)[C@H](Cc1ccccc1)NC(=O)[C@@H]1CCCN1C(=O)[C@H](CCC(N)=O)NC(=O)[C@@H](N)CCSC)[C@@H](C)CC)C(C)C)C(=O)N[C@H](C(=O)N[C@@H](CC(C)C)C(=O)N[C@@H](CCC(N)=O)C(=O)NCC(=O)N[C@@H](CO)C(=O)N[C@@H](CCCNC(=N)N)C(=O)N[C@@H](CCCNC(=N)N)C(=O)N[C@@H](CCCNC(=N)N)C(=O)N[C@@H](CCC(N)=O)C(=O)NCC(=O)N[C@@H](CCCNC(=N)N)C(N)=O)[C@@H](C)O — Kd (Kcnma1 (Mus musculus, UniProt Q08460); ion current, blocker, inside-out patch clamp; Xenopus oocytes; range over 4 µM, pH 7.0, 22–24 °C, at 0 mV, with: 10 µM cytosolic Ca2+): 0.6 µM
CC[C@H](C)[C@H](NC(=O)CNC(=O)[C@H](CC(=O)O)NC(=O)[C@H](Cc1ccc(OP(=O)(O)O)cc1)NC(=O)[C@@H]1CCCN1C(=O)[C@H](CCCCN)NC(=O)[C@H](CO)NC(=O)CNC(=O)[C@H](Cc1ccccc1)NC(=O)[C@@H](NC(=O)[C@H](CCSC)NC(=O)[C@H](CC(C)C)NC(=O)[C@H](CCC(=O)O)NC(=O)c1ccc2c(c1)C(=O)OC21c2ccc(N(C)C)cc2Oc2cc(N(C)C)ccc21)[C@@H](C)O)C(=O)N1CCC[C@H]1C(=O)N[C@@H](C)C(=O)N[C@@H](CO)C(=O)N[C@@H](CCC(=O)O)C(=O)N[C@@H](CC(=O)O)C(=O)O — Kd (RASA1 SH2 domains; binding): 1.41 µM
CC[C@H](C)[C@@H]1NC(=O)[C@H](Cc2c[nH]cn2)NC(=O)[C@H](Cc2ccccc2)NC(=O)[C@H](Cc2ccc(O)cc2)NC(=O)[C@H](CCC(N)=O)NC(=O)[C@H](Cc2ccccc2)NC(=O)[C@@H](NC(=O)[C@H](CCSC)NC(C)=O)CSSC[C@@H](C(=O)NCC(=O)N[C@@H](CO)C(=O)NCC(=O)N[C@@H](CO)C(=O)N[C@@H](CC(=O)O)C(=O)N[C@@H](Cc2ccc(O)cc2)C(=O)N[C@@H](CCCCN)C(=O)N[C@@H](CC(=O)O)C(=O)N[C@@H](CC(=O)O)C(=O)N[C@@H](CC(=O)O)C(=O)N[C@@H](CC(=O)O)C(=O)N[C@@H](CCCCN)C(N)=O)NC(=O)[C@H](Cc2ccccc2)NC(=O)[C@@H]2CCCN2C(=O)[C@H](Cc2c[nH]c3ccccc23)NC(=O)[C@H](CC(C)C)NC1=O — Kd (Gastric inhibitory polypeptide receptor, extracellular domain (GIPR, Homo sapiens, UniProt P48546); binding, biolayer interferometry; crude peptide): 0.0141 µM
CN1C2CCCC1CC(NC(=O)c1nn(C)c3ccccc13)C2 (stereo not shown) — Kd (Soluble acetylcholine receptor (Aplysia californica, UniProt Q8WSF8, K160T/Q74R/S111E/V159L/W164A); homologous radioligand competition): > 10 µM
CC(C)C[C@H](NC(=O)[C@H](CC(=O)O)NC(=O)[C@H](CC(=O)O)NC(=O)[C@H](CC(=O)O)NC(=O)[C@@H](NC(=O)[C@H](Cc1c[nH]c2ccccc12)NC(=O)[C@@H](N)CCC(=O)O)[C@@H](C)O)C(=O)N[C@@H](CO)C(=O)N[C@H](C(=O)N[C@@H](CC(C)C)C(=O)N[C@@H](C)C(=O)O)C(C)C — Kd (Serine protease HTRA1, PDZ domain (Homo sapiens, UniProt Q92743); isothermal titration calorimetry; isolated PDZ domain; pH 8.0): 9.8 µM

For quick reference, copied from above:
CC[C@H](C)[C@H](NC(=O)[C@H](Cc1ccc(OP(=O)(O)O)cc1)NC(=O)[C@H](CCC(=O)O)NC(=O)[C@H](Cc1c[nH]cn1)NC(=O)CNC(=O)[C@H](CC(=O)O)NC(=O)[C@H](CO)NC(=O)[C@H](CO)NC(=O)[C@@H](NC(=O)[C@H](CO)NC(=O)[C@H](CCC(=O)O)NC(=O)c1ccc2c(c1)C(=O)OC21c2ccc(N(C)C)cc2Oc2cc(N(C)C)ccc21)C(C)C)C(=O)N[C@@H](Cc1ccc(O)cc1)C(=O)N[C@H](C(=O)N[C@@H](CC(=O)O)C(=O)N1CCC[C@H]1C(=O)N[C@@H](CCSC)C(=O)N[C@@H](CCC(N)=O)C(=O)N[C@@H](CC(=O)O)C(=O)O)C(C)C — Kd (RASA1 SH2 domains; binding): 1.63 µM
